Measurements from different studies.
A part holds a random share of what one study measured.

Sample 1
Target: Ras GTPase-activating protein-binding protein 1, RRM domain (G3BP1, Homo sapiens, UniProt Q13283)
Chain of UniProt Q13283 (whole entry, looked up): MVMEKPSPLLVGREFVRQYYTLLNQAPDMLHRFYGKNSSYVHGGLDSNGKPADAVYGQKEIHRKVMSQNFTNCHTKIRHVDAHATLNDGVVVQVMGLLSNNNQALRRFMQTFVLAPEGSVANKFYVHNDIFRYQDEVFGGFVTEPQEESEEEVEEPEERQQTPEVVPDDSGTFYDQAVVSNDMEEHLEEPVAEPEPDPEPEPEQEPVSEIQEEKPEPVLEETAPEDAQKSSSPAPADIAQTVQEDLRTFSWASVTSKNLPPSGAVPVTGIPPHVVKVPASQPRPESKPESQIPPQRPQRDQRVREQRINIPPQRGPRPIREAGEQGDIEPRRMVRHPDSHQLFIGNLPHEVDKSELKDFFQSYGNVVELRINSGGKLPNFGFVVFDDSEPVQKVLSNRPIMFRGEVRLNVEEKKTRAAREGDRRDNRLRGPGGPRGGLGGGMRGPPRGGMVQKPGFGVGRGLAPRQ
Method: RNA Bind-n-Seq
Form: RNA
Medium: in vitro
Concentration: 1 µM
Notes: whole 134-nt RNA, ends assumed
With: 150 mM KCl
Relative to: input library
Direction: higher = stronger binding
Constant ends, left off below: GGGAGUUCUACAGUCCGACGAUC … UGGAAUUCUCGGGUGUCAAGG
Oligonucleotide | log2 enrichment
AGUCCUGUGCUACACAUCGUAUGUACCGAAUCGGGUUUUGGUUUUGGGGUUUUGGGGAAAGUAUUAUGUUACGCCGUUCGGAUCUGCACU | -0.0112
UAACUUUAGAGGAGGAUCUGAUGGAUAUGGCAGUGGACGUGGAUUUGGGGAUGGCUAUAAUGGGUAUGGAGAAGGACCUGGAGGUGGCAA | -0.3
GCAGGAAGUAAAAACAAAUGGAAAUGCUUCGGAUAGUGGCCGGGGUGGGGGUUGCUAAGGAAAGGGUGGGAUGGGAGUGGGUAAAGAGUU | 1.29
UGGCCCUGGUGGCAUGCGGGGAGGAAGAGGUCGCCUCAUGGAUCGUGGUGGUCCCGGUGGAAUGUUCAGAGGUGGCCGUGGUGGAGACAG | 0.754
GCAGGAAGCAAAAACAAAUGGAAAUGCUUCGGAUAGUGGCAGGGGUGGGGGUUGCUAAGGAAAGGGUGGGAUGGGAGUGGGUAAAGAGUU | 1.69
UAAGGAUUCUAUCUGCUUACUGCUACAGACCUAUGUGUUAAGGAAUUCUUCUCCUCCUCCUUGCGUAGAAGUUGAUCAGCACUGUGGUCA | -0.226
CACAGACAACACGCACCCACACAGACACAGAGGGAAGGGGUUGGGAUGGGGACAGGGUGCACAGCAGGGCGGGGAAAGACCCCAGCCCCU | -0.0394
UAACUUUCGAGGAGGAUCUGAUGGAUAUGGCAGUGGACGUGGAUUUGGGGAUGGCUAUAAUGGGUAUGGAGGAGGACCUGGAGGUGGCAA | -0.738

Sample 2
Target: Centromere-binding protein 1, full length, His-tagged (CBF1, Saccharomyces cerevisiae, UniProt P17106, residues 1-351)
Chain of UniProt P17106 (whole entry, looked up): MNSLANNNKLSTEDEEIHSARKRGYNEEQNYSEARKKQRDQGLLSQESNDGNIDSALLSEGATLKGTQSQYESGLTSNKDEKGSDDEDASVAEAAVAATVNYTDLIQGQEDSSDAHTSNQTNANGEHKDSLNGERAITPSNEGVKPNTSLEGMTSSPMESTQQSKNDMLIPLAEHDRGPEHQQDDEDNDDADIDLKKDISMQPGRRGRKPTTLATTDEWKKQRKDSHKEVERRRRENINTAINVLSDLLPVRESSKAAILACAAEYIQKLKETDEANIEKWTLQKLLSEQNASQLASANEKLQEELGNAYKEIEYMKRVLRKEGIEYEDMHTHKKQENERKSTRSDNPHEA
Method: competition protein-binding microarray
Form: double-stranded DNA, one strand shown
Medium: in vitro
Concentration: 2 µM
Notes: whole 60-bp probe, lowest competitor level
With: Pho4 competitor, 0.05 µM
Direction: higher = stronger binding
Constant ends, left off below: … GTCTTGATTCGCTTGACGCTGCTG
Oligonucleotide | fluorescence intensity [a.u.]
AAATTACTAAGTTGCCGCGTGGGTGACGCCGTATGA | 86.7
AAAGCGGTAATTTTTCACGTGTTGTCAAATATCTAT | 1660
GTCCGATGTCCCCATCACGTTCATCACAACATTCCT | 227
CATACCCAACCTTGGGTCGTGGGTGAAGATATTTGT | 62.8
GAGATTGACCTGTGTCTCGTGCTTTTCTTCCGCCTT | 157
CTTTCCCGATCTTGCGGGGTGGGTGTAGCACATTTG | 72
CTACGTACAAGTGTATACGTGCCAGTATTTGGACGC | 119
AGTTTTCCTTAGCACAGCATGACAATAACCGGGAAT | 83.8
TTGAGTTTCCCTCACTTCGTGATGGGCGTTAACGTC | 78.5
AAAAAAGGGGGCAGCAACGTGCTTTACATACAAACC | 187
TGCGCAACAACTTGGATTGTGGGTGTATGTCTAGAA | 70.5
GTCTTGTCTCATTGCGTTGTGGGTGTCCCCACTTCA | 98.4
GGAAATCGAACATTTCACGTTCTGCAGAATTTAAAG | 98.3
CGTCCTAGTGATTGGCGGGTGGGTGCCATGAGGAAG | 69.6

Sample 3
Molecule: PhoQ, residues 284 288 289 292 302 303 SACGEM
Method: Sort-seq
Measured: YFP reporter
Medium: E. coli
Notes: PhoQ-PhoP variant library
With: 10 µM Mg2+
Relative to: high Mg2+ state
Direction: higher = stronger signaling
target | fold induction
PhoP, residues 12 14 15 18 19 SFCSL (Escherichia coli, UniProt P23836) | 18.2
PhoP, residues 12 14 15 18 19 AYFRS (Escherichia coli, UniProt P23836) | 16
PhoP, residues 12 14 15 18 19 HHYTI (Escherichia coli, UniProt P23836) | 3.71

Single results of other studies
Method: cross-linking MS
Molecule | partner | medium | notes | with | quantity | result
NOL8 (Homo sapiens, UniProt Q76FK4) | LRRC59 (Homo sapiens, UniProt Q96AG4) | cell fractions | – | DSSO | cross-linked residues | K279 to K73
TIMM8A (Homo sapiens, UniProt O60220) | TIMM13 (Homo sapiens, UniProt Q9Y5L4) | – | hits only | – | interaction screen | cross-linked
CALR (Homo sapiens, UniProt P27797) | PDIA3 (Homo sapiens, UniProt P30101) | – | hits only | – | interaction screen | cross-linked
SIN3A (Homo sapiens, UniProt Q96ST3) | ING2 (Homo sapiens, UniProt Q9H160) | cell fractions | – | DMTMM | cross-linked residues | K638 to E99

For quick reference, copied from above (sample 3):
target | fold induction
PhoP, residues 12 14 15 18 19 SFCSL (Escherichia coli, UniProt P23836) | 18.2
PhoP, residues 12 14 15 18 19 AYFRS (Escherichia coli, UniProt P23836) | 16
PhoP, residues 12 14 15 18 19 HHYTI (Escherichia coli, UniProt P23836) | 3.71
